Experimental data from different studies.
Numbered parts are unrelated; each lists some results of a single study. Values joined by “and” are separate records of one study, mostly repeats; a detail may differ.
UniProt P53355, sequence (whole entry, looked up): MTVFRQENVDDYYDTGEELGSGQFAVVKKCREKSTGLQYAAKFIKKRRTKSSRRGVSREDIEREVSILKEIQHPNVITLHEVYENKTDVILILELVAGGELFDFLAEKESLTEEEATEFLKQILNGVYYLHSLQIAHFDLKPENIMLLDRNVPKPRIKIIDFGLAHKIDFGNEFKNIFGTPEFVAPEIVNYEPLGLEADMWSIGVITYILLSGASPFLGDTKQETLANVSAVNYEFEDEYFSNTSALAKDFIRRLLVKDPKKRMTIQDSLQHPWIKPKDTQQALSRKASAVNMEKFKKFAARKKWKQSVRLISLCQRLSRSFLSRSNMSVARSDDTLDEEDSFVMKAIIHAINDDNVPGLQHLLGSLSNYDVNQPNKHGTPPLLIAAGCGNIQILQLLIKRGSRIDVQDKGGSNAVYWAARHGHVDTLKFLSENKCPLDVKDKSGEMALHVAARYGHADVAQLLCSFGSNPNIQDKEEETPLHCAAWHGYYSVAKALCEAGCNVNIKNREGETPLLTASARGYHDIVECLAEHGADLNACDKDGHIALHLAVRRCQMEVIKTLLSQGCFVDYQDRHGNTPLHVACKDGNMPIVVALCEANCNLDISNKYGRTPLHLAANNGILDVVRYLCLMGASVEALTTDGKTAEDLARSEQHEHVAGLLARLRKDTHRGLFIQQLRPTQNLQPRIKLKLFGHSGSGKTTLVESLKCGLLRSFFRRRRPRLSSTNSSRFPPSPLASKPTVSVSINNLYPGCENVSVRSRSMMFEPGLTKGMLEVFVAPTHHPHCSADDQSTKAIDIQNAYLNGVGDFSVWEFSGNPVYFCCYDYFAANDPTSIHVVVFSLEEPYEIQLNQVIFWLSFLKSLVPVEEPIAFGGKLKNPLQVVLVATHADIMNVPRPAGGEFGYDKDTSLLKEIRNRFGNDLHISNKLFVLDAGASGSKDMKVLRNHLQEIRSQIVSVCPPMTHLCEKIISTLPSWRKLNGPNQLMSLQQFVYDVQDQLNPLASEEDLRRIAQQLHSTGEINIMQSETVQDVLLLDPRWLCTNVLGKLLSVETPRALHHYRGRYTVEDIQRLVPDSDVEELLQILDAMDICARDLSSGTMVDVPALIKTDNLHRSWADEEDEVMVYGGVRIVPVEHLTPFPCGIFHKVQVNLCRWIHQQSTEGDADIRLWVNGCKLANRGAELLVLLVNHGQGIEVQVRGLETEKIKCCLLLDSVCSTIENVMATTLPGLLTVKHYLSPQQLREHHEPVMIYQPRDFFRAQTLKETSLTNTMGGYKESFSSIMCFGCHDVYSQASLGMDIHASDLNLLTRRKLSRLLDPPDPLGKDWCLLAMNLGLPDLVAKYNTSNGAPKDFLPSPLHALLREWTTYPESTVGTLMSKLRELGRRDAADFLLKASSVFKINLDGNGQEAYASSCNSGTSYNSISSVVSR
UniProt P52564, sequence (whole entry, looked up): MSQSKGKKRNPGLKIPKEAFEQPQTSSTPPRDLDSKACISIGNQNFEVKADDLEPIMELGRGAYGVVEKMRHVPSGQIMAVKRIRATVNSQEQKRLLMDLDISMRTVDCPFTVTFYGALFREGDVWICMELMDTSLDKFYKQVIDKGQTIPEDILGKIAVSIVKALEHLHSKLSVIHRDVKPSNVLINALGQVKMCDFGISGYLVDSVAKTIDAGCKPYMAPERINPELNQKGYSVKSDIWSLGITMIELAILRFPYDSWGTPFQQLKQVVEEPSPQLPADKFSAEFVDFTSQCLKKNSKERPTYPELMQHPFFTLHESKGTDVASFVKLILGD
UniProt Q13976, sequence (whole entry, looked up): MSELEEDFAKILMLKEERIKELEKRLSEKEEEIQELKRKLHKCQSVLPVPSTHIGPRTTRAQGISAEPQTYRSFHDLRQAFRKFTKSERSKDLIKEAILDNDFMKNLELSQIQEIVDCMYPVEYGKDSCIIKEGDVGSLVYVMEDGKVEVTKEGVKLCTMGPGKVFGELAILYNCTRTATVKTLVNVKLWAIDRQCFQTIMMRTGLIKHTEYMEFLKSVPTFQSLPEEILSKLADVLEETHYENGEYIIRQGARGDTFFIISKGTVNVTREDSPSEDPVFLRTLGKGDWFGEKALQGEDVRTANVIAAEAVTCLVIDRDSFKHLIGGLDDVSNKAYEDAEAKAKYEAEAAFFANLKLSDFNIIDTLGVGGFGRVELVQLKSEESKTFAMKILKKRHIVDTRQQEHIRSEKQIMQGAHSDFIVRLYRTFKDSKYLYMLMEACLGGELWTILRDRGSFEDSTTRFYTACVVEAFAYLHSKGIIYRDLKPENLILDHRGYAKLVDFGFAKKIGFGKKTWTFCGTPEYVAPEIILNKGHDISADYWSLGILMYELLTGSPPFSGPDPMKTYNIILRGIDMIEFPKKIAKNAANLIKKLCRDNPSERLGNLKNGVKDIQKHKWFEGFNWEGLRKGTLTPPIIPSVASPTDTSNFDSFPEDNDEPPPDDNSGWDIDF
UniProt Q8IWQ3, sequence (whole entry, looked up): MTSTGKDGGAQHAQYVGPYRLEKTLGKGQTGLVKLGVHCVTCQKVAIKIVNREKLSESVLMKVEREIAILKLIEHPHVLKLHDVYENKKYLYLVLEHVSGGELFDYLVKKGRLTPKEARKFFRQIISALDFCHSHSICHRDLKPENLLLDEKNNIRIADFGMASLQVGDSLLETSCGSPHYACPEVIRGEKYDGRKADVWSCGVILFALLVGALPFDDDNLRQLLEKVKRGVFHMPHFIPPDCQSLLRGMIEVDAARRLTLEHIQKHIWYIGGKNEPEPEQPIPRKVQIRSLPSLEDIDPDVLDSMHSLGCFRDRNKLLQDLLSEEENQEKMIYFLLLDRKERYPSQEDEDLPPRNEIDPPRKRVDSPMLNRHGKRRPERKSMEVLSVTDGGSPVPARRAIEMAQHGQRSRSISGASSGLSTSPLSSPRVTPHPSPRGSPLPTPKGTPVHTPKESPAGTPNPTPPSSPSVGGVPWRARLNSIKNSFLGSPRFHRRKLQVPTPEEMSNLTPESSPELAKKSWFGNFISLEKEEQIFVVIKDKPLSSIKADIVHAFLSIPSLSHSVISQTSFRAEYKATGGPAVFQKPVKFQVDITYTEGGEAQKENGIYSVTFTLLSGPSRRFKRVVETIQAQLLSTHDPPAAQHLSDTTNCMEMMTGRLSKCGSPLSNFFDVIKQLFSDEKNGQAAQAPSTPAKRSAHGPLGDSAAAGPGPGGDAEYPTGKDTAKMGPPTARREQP
UniProt O75116, sequence (whole entry, looked up): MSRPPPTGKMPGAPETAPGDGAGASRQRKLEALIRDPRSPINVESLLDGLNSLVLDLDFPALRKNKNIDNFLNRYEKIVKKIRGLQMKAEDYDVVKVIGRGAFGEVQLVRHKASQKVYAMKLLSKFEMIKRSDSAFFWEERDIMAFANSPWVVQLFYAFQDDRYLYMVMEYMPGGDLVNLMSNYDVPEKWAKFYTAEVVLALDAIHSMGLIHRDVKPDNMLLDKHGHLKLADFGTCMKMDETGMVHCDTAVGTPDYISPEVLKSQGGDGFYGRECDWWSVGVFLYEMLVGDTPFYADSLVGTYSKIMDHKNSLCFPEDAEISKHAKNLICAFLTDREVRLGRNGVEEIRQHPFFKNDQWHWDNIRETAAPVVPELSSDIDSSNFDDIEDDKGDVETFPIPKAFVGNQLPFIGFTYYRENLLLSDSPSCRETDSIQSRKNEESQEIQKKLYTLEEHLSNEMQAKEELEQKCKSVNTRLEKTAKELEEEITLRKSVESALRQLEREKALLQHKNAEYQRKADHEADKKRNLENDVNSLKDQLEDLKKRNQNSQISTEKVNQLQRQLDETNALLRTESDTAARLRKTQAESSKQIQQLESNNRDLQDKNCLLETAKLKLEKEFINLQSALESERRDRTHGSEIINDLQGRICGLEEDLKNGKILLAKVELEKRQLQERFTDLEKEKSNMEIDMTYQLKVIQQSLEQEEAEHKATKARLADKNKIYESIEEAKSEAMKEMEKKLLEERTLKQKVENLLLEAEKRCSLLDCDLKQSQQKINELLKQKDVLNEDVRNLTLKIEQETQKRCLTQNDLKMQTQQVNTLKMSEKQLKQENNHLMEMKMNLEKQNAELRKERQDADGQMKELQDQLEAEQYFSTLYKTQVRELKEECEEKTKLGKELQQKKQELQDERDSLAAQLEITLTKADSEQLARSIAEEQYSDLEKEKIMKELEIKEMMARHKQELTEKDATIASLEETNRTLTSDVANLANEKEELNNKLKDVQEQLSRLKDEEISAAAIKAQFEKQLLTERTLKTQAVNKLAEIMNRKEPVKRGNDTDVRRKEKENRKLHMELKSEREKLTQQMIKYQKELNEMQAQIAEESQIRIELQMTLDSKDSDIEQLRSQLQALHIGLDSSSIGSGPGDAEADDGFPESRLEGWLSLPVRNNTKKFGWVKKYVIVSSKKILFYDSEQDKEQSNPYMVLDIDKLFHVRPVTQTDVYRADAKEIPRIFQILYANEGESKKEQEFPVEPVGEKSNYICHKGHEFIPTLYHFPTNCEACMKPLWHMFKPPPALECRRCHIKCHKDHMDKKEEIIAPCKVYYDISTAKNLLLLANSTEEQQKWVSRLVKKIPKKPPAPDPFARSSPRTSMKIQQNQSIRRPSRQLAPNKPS

Study 1 — read-out: cell-free assay; technique: competition with immobilised ligand; concentration: 1 µM; measurement: remaining binding
Compound: O=C(O)[C@H]1[C@H](Cn2nnc3ccccc3c2=O)CC[C@@H]1C(=O)c1ccc(OCCC2CCOCC2)cc1
DAPK1 (Homo sapiens, UniProt P53355): 89%
BRSK2 (Homo sapiens, UniProt Q8IWQ3): 100%
EPHA4 (Homo sapiens, UniProt P54764): 90%
CLK3 (Homo sapiens, UniProt P49761): 100%
ERBB3 (Homo sapiens, UniProt P21860): 69%
CDK11B (Homo sapiens, UniProt P21127): 88%
SRPK3 (Homo sapiens, UniProt Q9UPE1): 84%
RIPK1 (Homo sapiens, UniProt Q13546): 84%
PRKG1 (Homo sapiens, UniProt Q13976): 75%
ROCK2 (Homo sapiens, UniProt O75116): 80%
MAP2K6 (Homo sapiens, UniProt P52564): 100%

Study 2 — cell line: mouse MPNST tumor cells; technique: high-content immunofluorescence imaging; item: nuclear SOX9; concentration: 10 µM; time: 12 h; setting: mean of 2 replicates; relative to: DMSO control; direction: higher = more nuclear SOX9; measurement: nuclear SOX9 intensity
CC[N+](C)(CC)CCOC(=O)C(O)(c1ccccc1)C1CCCCC1 (stereo not shown): 96.6 % of DMSO
O=C(O)CCC(=O)c1ccc(-c2ccccc2)cc1: 114 % of DMSO
CCCN[C@H]1CCc2nc(N)sc2C1: 97.7 % of DMSO and 102 % of DMSO and 103 % of DMSO
CC[N+](CC)(CC)CCOc1ccc(/C=C/c2ccccc2)cc1: 84.2 % of DMSO
C[C@@H]1CN(CC(=O)Nc2ccc3c(c2)Cc2cccc(-c4cc(=O)cc(N5CCOCC5)o4)c2S3)C[C@H](C)O1: 110 % of DMSO
NC(=O)N/N=C/c1ccc([N+](=O)[O-])o1: 106 % of DMSO
CCOC(=O)[C@H](C)C[C@@H](Cc1ccc(-c2ccccc2)cc1)NC(=O)CCC(=O)O: 89.5 % of DMSO

Study 3 — medium: plasma; route: oral; measurement: plasma concentration, geometric mean
SMILES: COc1ccc(-c2c(Nc3ccccn3)[nH]c3c(C4=CCCCC4)c(-c4ccccc4)nn3c2=O)cc1
LC-MS/MS; human; 200 mg twice daily, 6 h, single dose: 1360 ng/mL
LC-MS/MS; human; 200 mg twice daily, 24 h, single dose: 790 ng/mL
cancer patients; 400 mg, 48 h post-dose, single dose: 172 ng/mL
cancer patients; 50 mg, 72 h post-dose, single dose: 27.9 ng/mL
cancer patients; 100 mg, 24 h post-dose, single dose: 634 ng/mL
human patients; 200 mg once daily, 0 h, cycle 1: 4060 ng/mL
cancer patients; 50 mg, 48 h post-dose, single dose: 71.9 ng/mL
human patients; 100 mg once daily, 0 h, cycle 1: 2660 ng/mL
human patients; 200 mg once daily, 8 h, cycle 1: 4660 ng/mL
LC-MS/MS; human; 50 mg once daily, 0.5 h, cycle 1: 1070 ng/mL

Study 4 — read-out: enzyme activity; action: inhibitor; concentration: 0.5 µM; relative to: control; measurement: remaining activity
Target: Glycogen synthase kinase-3 alpha (GSK3A, Homo sapiens, UniProt P49840)
UniProt P49840, sequence (whole entry, looked up): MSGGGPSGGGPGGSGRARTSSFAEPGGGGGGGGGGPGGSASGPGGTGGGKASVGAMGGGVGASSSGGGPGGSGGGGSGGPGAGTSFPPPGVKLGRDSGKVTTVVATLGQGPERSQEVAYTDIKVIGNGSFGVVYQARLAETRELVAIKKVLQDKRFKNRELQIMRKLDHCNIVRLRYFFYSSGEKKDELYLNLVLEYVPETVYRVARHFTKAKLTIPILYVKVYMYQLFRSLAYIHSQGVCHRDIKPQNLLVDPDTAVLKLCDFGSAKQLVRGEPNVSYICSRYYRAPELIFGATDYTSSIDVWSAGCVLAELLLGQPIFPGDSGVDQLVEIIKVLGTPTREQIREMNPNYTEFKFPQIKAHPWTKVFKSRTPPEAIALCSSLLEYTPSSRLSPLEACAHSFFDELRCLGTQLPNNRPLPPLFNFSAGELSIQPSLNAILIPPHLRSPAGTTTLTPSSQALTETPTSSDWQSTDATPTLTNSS
O=C1c2ccccc2-c2n[nH]c3cccc1c23: 118%
N#C/C(=C\c1ccc(O)c(O)c1)C(=O)NCc1ccccc1: 96.5%
O=c1cc(-c2cccc3c2Sc2ccccc2S3)oc(N2CCOCC2)c1: 86.7%
Cc1cn(-c2cc(NC(=O)c3ccc(C)c(Nc4nccc(-c5cccnc5)n4)c3)cc(C(F)(F)F)c2)cn1: 99.4%
O=C(NC(NC(=S)Nc1ccc(F)c([N+](=O)[O-])c1)C(Cl)(Cl)Cl)C(c1ccccc1)c1ccccc1 (stereo not shown): 105%
O=C(Nc1cccc(Nc2nccc(Nc3cccc(C(F)(F)F)c3)n2)c1)C1CC1: 95%

Repeated from above (study 2):
CCCN[C@H]1CCc2nc(N)sc2C1: 97.7 % of DMSO and 102 % of DMSO and 103 % of DMSO
CC[N+](CC)(CC)CCOc1ccc(/C=C/c2ccccc2)cc1: 84.2 % of DMSO
C[C@@H]1CN(CC(=O)Nc2ccc3c(c2)Cc2cccc(-c4cc(=O)cc(N5CCOCC5)o4)c2S3)C[C@H](C)O1: 110 % of DMSO
NC(=O)N/N=C/c1ccc([N+](=O)[O-])o1: 106 % of DMSO
